# Measurements pooled from the literature.
# Numbered parts are unrelated; each lists some results of a single study.

# Series 1
# Target: Histone acetyltransferase KAT6A, both winged helices, GST fusion (KAT6A, Homo sapiens, UniProt Q92794, residues 1-181)
# Method: protein binding microarray
# Form: double-stranded DNA, one strand shown
# Medium: in vitro
# Concentration: not given
# Setting: 8-mer, flanks averaged, mean of 2 arrays, mostly near background
# Reference: not given
# Reading: higher = stronger binding
# Construct (chain): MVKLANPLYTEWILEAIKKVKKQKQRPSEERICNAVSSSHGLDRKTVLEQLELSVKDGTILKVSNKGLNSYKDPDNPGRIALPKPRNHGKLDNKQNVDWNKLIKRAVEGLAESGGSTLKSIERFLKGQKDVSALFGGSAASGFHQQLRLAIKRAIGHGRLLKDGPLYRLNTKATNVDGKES
Oligonucleotide,E-score
CTGAACCC,0.0182
ATAGTCGC,0.0998
GCCCGGGC,0.328
CAAACGGA,0.177
GCGAAGTA,0.0517
ACGCACCA,0.117
AATCAGAA,-0.151
GGCGGGCA,0.277

# Series 2
# Target: Interferon regulatory factor 5, full length, phosphomimetic (IRF5, Homo sapiens, UniProt Q13568-2, residues 1-514, K96S/S451D/S453D/S456D/S462D)
# Method: protein-binding microarray
# Form: double-stranded DNA, one strand shown
# Medium: in vitro
# Concentration: 250 nM
# Setting: 60-bp whole probe
# Added: salmon DNA 0.4 mg/ml
# Reference: random background probes
# Reading: higher = stronger binding
# All sequences stand within: GCCTAGCAC … GTCTTGATTCGCTTGACGCTGCTG
Oligonucleotide,log fluorescence [z-score]
GACGGTTTTGGTCTCGGGACGTGCTAG,1.29
GACGGTTTCGACATTGGGGACGTGCTA,4.8
TTAGGCCTGGGACTGGGTTAGTGCTAG,-0.7
GACGAACTGGGGGTTCGAGACGTGCTA,-0.197
GACGGGCTCCTTCTCCTGACGTGCTAG,-0.554
TTAGATTTTTTTTCCTAATTGTGCTAG,1.06

# Series 3
# Target: Centromere-binding protein 1, full length, N-terminal tag (CBF1, Saccharomyces cerevisiae, UniProt P17106, residues 1-351)
# Chain of UniProt P17106 (whole entry, looked up): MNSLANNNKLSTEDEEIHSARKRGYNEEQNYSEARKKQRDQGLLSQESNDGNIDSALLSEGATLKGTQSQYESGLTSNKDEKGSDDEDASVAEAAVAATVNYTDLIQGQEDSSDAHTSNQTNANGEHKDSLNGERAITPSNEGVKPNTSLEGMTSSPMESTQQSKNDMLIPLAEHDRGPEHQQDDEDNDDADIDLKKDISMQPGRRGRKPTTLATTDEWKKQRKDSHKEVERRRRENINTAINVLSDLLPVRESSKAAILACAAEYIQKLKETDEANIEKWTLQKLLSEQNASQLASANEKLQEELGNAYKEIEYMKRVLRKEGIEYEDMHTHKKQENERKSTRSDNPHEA
# Method: protein-binding microarray
# Form: double-stranded DNA, one strand shown
# Medium: in vitro
# Concentration: 0.8 µM
# Setting: whole 60-bp probe, no competitor
# Reading: higher = stronger binding
# All sequences stand within: … GTCTTGATTCGCTTGACGCTGCTG
Oligonucleotide,fluorescence intensity [a.u.]
GAACTGCACTTCTGGCACATGGTCTAGCCTTTCTAG,847
CTAACATAACTATAACGTGTGTGAGGGCGAGCATTC,565
GAATGCTTTCATTTCGGCGTGATGGTACGGCACTAG,574
CTAGTCTCCGCCGTGTTGGTGATGCAGTTTTCTTTC,518
CTACGTTCTCGTCATCAGGTTGTATGGGCTAGTTTC,544

# Other studies, line by line
Substance,target,test,test system,conditions,scale,measurement,value
"PhoQ, residues 284 288 289 292 302 303 GANMMA","PhoP, residues 12 14 15 18 19 VQGLL (Escherichia coli, UniProt P23836)","Sort-seq, item: YFP reporter",E. coli,"PhoQ-PhoP variant library, added: 10 µM Mg2+","reference: high Mg2+ state, higher = stronger signaling",fold induction,3.15
